Measured values collected from several papers.
Each line is one published result; not all experiments were run side by side. ± marks the error that the study gave.

| SMILES | organism | test | system | setting | EC50 |
| --- | --- | --- | --- | --- | --- |
| Nc1ncnc2c1c(I)cn2[C@@H]1O[C@H](CO)C[C@H]1O | Trypanosoma evansi | parasite growth, resazurin | AnTat 3.3 | 48 h plus 24 h resazurin | 4 ± 1 nM |
| CCCCCCS(=O)(=O)c1cccc(O)c(=O)c1O | Hepatitis B virus | viral replication, inhibitor | HepDES19 |  | 6600 nM |
| CC1(C)CC[C@]2(CO)CC[C@]3(C)C(=CC[C@@H]4[C@@]5(C)CCCNC(C)(C)[C@@H]5CC[C@]43C)[C@@H]2C1 | Human alphaherpesvirus 1 | cytopathic effect | HFF, E-377 |  | > 1200 nM |
| CCc1c(CC2CCCCC2)nc(SCC(=O)c2ccccc2)[nH]c1=O | Human immunodeficiency virus 1 | viral replication | TZM-bl, Ba-L |  | 37.7 ± 23.1 nM |
| C#Cc1cn([C@@H]2O[C@H](CO)C[C@H]2O)c2ncnc(N)c12 | Trypanosoma evansi | parasite growth, resazurin | AnTat 3.3 | 48 h plus 24 h resazurin | 8 ± 2 nM |
| CC(C)Sc1ccc(SC(C)C)c(O)c(=O)c1O | Hepatitis B virus | viral replication, inhibitor | HepDES19 |  | 12700 nM |
| CC[C@H](N[C@H](C)CC(N)=O)c1ccc(Cl)c(Oc2ccccc2)c1F | Hepatitis C virus | viral replication, luciferase replicon | Huh-7 subgenomic replicon, genotype 1b | 72 h | inactive |
| Nc1ncnc2c1c(F)cn2[C@@H]1O[C@H](CO)C[C@H]1O | Trypanosoma evansi | parasite growth, resazurin | AnTat 3.3 | 48 h plus 24 h resazurin | 4 ± 1 nM |
| Cc1cc(C#N)cc(C)c1Oc1nc(NC2CCN(Cc3ccc(S(C)(=O)=O)cc3)CC2)nc2cccnc12 | HIV-1 | viral replication, luciferase reporter | TZM-bl, NL4-3 wild type |  | 2.4 ± 0.83 nM |
| Nc1ncnc2c1ccn2[C@H]1C[C@H](O)[C@@H](CO)O1 | Trypanosoma evansi | parasite growth, resazurin | AnTat 3.3 | 48 h plus 24 h resazurin | > 64000 nM |
| Cc1cc(C#N)cc(C)c1Oc1nc(NC2CCN(Cc3cccc(C(N)=O)c3)CC2)nc2ccccc12 | HIV-1 | viral replication, luciferase reporter | TZM-bl, NL4-3 wild type |  | 8.55 ± 2.86 nM |
| O=c1c(O)c(S(=O)(=O)Cc2ccccc2)ccc(S(=O)(=O)Cc2ccccc2)c1O | Hepatitis B virus | viral replication, inhibitor | HepDES19 |  | > 50000 nM |
| Cc1cc(/C=C/C#N)cc(C)c1Oc1nc(NC2CCN(Cc3ccc(C(N)=O)cc3)CC2)nc2ncccc12 | HIV-1 | viral replication, luciferase reporter | TZM-bl, NL4-3 wild type |  | > 46.8 nM |
| Nc1ncnc2c1c(C(F)(F)F)cn2[C@@H]1O[C@H](CO)[C@@H](O)[C@H]1O | Trypanosoma evansi | parasite growth, resazurin | AnTat 3.3 | 48 h plus 24 h resazurin | 670 ± 110 nM |
| Cc1cc(C#N)cc(C)c1Oc1nc(NC2CCN(Cc3ccc(S(N)(=O)=O)cc3)CC2)nc2cccnc12 | HIV-1 | viral replication, luciferase reporter | TZM-bl, NL4-3 wild type |  | 5.33 ± 1.75 nM |
| Nc1nc2c(ncn2[C@H]2C[C@H](O)[C@@H](CO)/C2=C\F)c(=O)[nH]1 | Hepatitis B virus | viral replication, inhibitor, qPCR | HepG2 2.2.15 | 14 days | 0.9 nM |
| CC1(C)NCCC[C@]2(C)[C@H]3CC=C4[C@@H]5C[C@@](C)(CO)CC[C@]5(C)CC[C@@]4(C)[C@]3(C)CC[C@@H]12 | Human alphaherpesvirus 1 | cytopathic effect | HFF, E-377 |  | > 6000 nM |
| O=c1c(O)cccc(SCc2ccccc2)c1O | Hepatitis B virus | viral replication, inhibitor | HepDES19 |  | 25000 nM |
| Nc1ncnc2c1ccn2[C@@H]1O[C@H](CO)C[C@H]1O | Trypanosoma evansi | parasite growth, resazurin | AnTat 3.3 | 48 h plus 24 h resazurin | 17 ± 2 nM |
| C=C(C)[C@@H]1CC[C@]2(C(=O)n3ccnc3)CC[C@]3(C)[C@H](CC[C@@H]4[C@@]5(C)CCCNC(C)(C)[C@@H]5CC[C@]43C)[C@@H]12 | Human alphaherpesvirus 1 | cytopathic effect | HFF, E-377 |  | > 6000 nM |
| CCCCCCS(=O)(=O)c1ccc(S(=O)(=O)CCCCCC)c(O)c(=O)c1O | Hepatitis B virus | viral replication, inhibitor | HepDES19 |  | 50000 nM |
| CC[C@H](C)[C@@H]1NC(=O)[C@@H]2[C@H](CCN2C(=O)[C@@H](NC(=O)[C@@H](C)NC)[C@@H](C)CC)Oc2ccc(OC)c(c2)/C=C\NC1=O | porcine epidemic diarrhea virus | viral cytopathic effect | Vero cells | 72 h | 4490 ± 670 nM |
| O=c1c(O)cccc(Sc2cccc3ccccc23)c1O | Hepatitis B virus | viral replication, inhibitor | HepDES19 |  | > 50000 nM |
| C=C(C)[C@@H]1CC[C@]2(C(N)=O)CC[C@]3(C)[C@H](CC[C@@H]4[C@@]5(C)CCCNC(C)(C)[C@@H]5CC[C@]43C)[C@@H]12 | Human alphaherpesvirus 1 | cytopathic effect | HFF, E-377 |  | > 6000 nM |

Some of these lines once more:
| SMILES | organism | test | system | setting | EC50 |
| --- | --- | --- | --- | --- | --- |
| Nc1ncnc2c1ccn2[C@H]1C[C@H](O)[C@@H](CO)O1 | Trypanosoma evansi | parasite growth, resazurin | AnTat 3.3 | 48 h plus 24 h resazurin | > 64000 nM |
| Cc1cc(C#N)cc(C)c1Oc1nc(NC2CCN(Cc3cccc(C(N)=O)c3)CC2)nc2ccccc12 | HIV-1 | viral replication, luciferase reporter | TZM-bl, NL4-3 wild type |  | 8.55 ± 2.86 nM |
